Published values collected from several papers.
Lines come from different studies, so protocols differ. Several values in a cell are separate wells, animals, samples, runs or records. ± gives the spread as reported.

`Cc1cc(-c2nccc3c2ccn3CC(=O)Nc2ccc(-c3cnccn3)cn2)ccn1` — result for “subjects with gastrointestinal disorders”: 0% (human; 5 mg once daily, multiple ascending dose).
The hepatic clearance of `CN(CCC#N)C(=O)c1ccc([C@H]2[C@@H](F)[C@@H](F)C[C@@H](F)[C@H]2F)cc1` is reported as 6.2 mL/min/kg (hepatocyte stability; cryopreserved human hepatocytes; 1 µM).
For `CNc1ccc(-c2nc3ccc(O)cc3s2)cc1` [carbon-11 labelled], the SUV was 0.384 ± 0.157 (ex vivo biodistribution; APP/PS1 mouse, AD model, pancreas; intravenous, 30 min).
For `C#C[C@]1(CO)O[C@@H](n2cnc3c(N)nc(F)nc32)C[C@@H]1O`, the AUC(0-168 h) was 3.68 µM·h (human, plasma; oral, 30 mg single dose, extrapolated beyond 96 h).
With `O=C(N[C@H](Cc1c[nH]c2ccccc12)C(=O)Nc1ccncc1)c1ccc(-c2cc(C(F)(F)F)ccc2F)cc1F` the concentration was 10.3 µM (Swiss Webster mouse, female, plasma; oral, 50 mg/kg, 2 h, 20% Kolliphor vehicle).
`CN(C)CCC(=O)Nc1ccc(C2CCCCC2)cc1` gave a hepatic clearance of 44 mL/min/kg (hepatocyte stability; cryopreserved rat hepatocytes; 1 µM).
For `O=C1NCCc2nc(OCc3cccc(F)c3)ccc21`, “Irwin test score” read 0 (item: loss of Placing; Sprague-Dawley rat male; oral, 100 mg/kg, 4 h; direction not given).
The hepatic clearance of `CC(C(=O)Nc1ccc(C2CCCCC2)cc1)n1cncn1` (centres unmarked) is reported as 3.9 mL/min/kg (human liver microsomes; 1 µM, without NADPH).
`Cc1c(-c2ccc(N3CCc4cccc(C(=O)Nc5nc6ccccc6s5)c4C3)nc2C(=O)O)cnn1CC12CC3(C)CC(C)(C1)CC(OCCNCC[C@H](O)CO)(C3)C2` gave a plasma concentration of 29 ng/mL (anaesthetized male beagle dog; iv infusion, 0.01 mg/kg/min, 5 min).
For `CNC(=O)c1ccc(-c2cnc3ncc(Cc4ccc5ncccc5c4)n3n2)cc1F`, “patients with adverse event” read 0% (item: Pruritus; gastric cancer patients; oral, 600 mg twice daily, expansion cohort, grade 3-4).
`CN[C@H](CC(C)C)C(=O)N[C@H]1C(=O)N[C@@H](CC(N)=O)C(=O)N[C@H]2C(=O)N[C@H]3C(=O)N[C@H](C(=O)N[C@H](C(=O)O)c4cc(O)cc(O)c4-c4cc3ccc4O)[C@H](O)c3ccc(c(Cl)c3)Oc3cc2cc(c3O[C@@H]2O[C@H](CO)[C@@H](O)[C@H](O)[C@H]2O[C@H]2C[C@](C)(N)[C@H](O)[C@H](C)O2)Oc2ccc(cc2Cl)[C@H]1O` has a Cmin of 1460 ng/mL (guinea pig, tissue cage fluid; intraperitoneal, 15 mg/kg single, 12 h).
`CC(C)(c1ccc(O)cc1)c1ccc(O)cc1`: “dose fraction in milk fat” 39.4% (whole cow milk; 200 nM nominal).
`Cc1ccc(C(=O)N(CCCN)C(c2nc3snc(C)c3c(=O)n2Cc2ccccc2)C(C)C)cc1` (centres unmarked) — result for “patients with adverse events”: 21% (item: Hypokalemia; human patients; intravenous, dose not given, CTCAE grade ≥3, all doses).
With `OCc1nc2ccc(NCc3ccc(C(F)(F)F)cc3)cc2[nH]1` the MRT(0-inf) was 1.93 ± 0.2 h (Balb/c mice, male, plasma; oral, 10 mg/kg).
With `COc1ccc2c(c1)CN(C(=O)CCN1CCC(Cc3ccccc3)CC1)CC[S@@+]2[O-]` the PQ interval was 94 ± 12 ms (telemetry; conscious dogs; intravenous, 2 mg/kg, before dosing).
Under “drug-related gastrointestinal disorders”, `COc1ccc([C@@H](O)c2cc(-c3ncnc4cc(N5CCOCC5)ccc34)c(F)cc2Cl)nn1` is recorded as 79% (locally advanced rectal cancer; all dose levels overall, together with: capecitabine and radiotherapy).
With `CCCCC1=NC2(CCCC2)C(=O)N1Cc1ccc(-c2ccccc2S(=O)(=O)Nc2noc(C)c2C)c(COCC)c1` the Cmax was 2850 ng/mL (healthy adult volunteers, plasma; oral, 100 mg, single dose, fasted, crushed tablet).
With `Cl.[2H]C([2H])([2H])CC(=O)c1cnc(NC(=O)C2CC2)cc1Nc1cccc(-c2ncn(C([2H])([2H])[2H])n2)c1OC` the half-life was 7.97 h (geometric mean; human; oral, 25 mg single dose, fasted, liquid).
For `Cc1ccc(O)c(-n2nc3ccccc3n2)c1`, the dermal uptake was 867 ng/kg body weight/day (exposure assessment; human, age 21-60 years, sunscreen).
`COC(=O)N[C@@H](C)CNc1nccc(-c2cn(C(C)C)nc2-c2cc(Cl)cc(NS(C)(=O)=O)c2F)n1`: “AUCinf geometric mean ratio” 183% (human, plasma; oral, single dose, together with: diltiazem; reference: compound alone).
With `CCc1c(-c2ccccc2)c(-c2ccccc2)nn1-c1ccccc1-c1cccc(OCC(=O)O)c1` the concentration was 30100 ng/g and 28100 ng/g (Sprague-Dawley rat, small intestine; oral, 10 mg/kg, 1 h).
With `O=C(c1ccc(C2CCCCC2)cc1)N1CC(O)C1` the hepatic clearance was 27 mL/min/kg (liver microsome stability; dog liver microsomes; 1 µM).
`CCCOc1ccc(NC(=O)CN2CCN(C)CC2)cc1-c1nc(CC)c(CC)c(=O)[nH]1` — result for “maximal decrease in diastolic BP”: -12.6 ± 3.79 mmHg (healthy Chinese men; 10 mg, supine or semi-supine, together with: placebo; reference: baseline).
Under “subjects with elevated cholesterol TEAE”, `O=C(O)CCC(=O)O.[2H]C([2H])([2H])Oc1cc(C)c2[nH]ccc2c1CN1CC[C@@H](C2CC2)C[C@H]1c1ccc(C(=O)O)cc1` is recorded as 0% (multiple ascending dose; healthy Chinese subjects; 100 mg twice daily).
`COc1ccc2c(=O)n(C)c(-c3ccccc3)nc2c1` has a tissue/plasma ratio of 0.7 (Sprague-Dawley rat, male, brain; oral, 30 mg/kg, 2 h; reference: brain over plasma).
For `CNCc1ccc(-c2[nH]c3cc(F)cc4c3c2CCNC4=O)cc1`, the dysgeusia incidence was 0% (human patients; oral, 600 mg twice daily, grade 5).
Under “diastolic blood pressure”, `CCN1/C(=C/C(C)=O)Sc2ccc(F)cc21` is recorded as 75 ± 5 mmHg (cynomolgus monkey; oral, 30 mg/kg, 0.5 h post-dose).
The hepatic clearance of `CC(=O)N1CC(C(=O)Nc2ccc(C3CCCCC3)cc2)C1` is reported as 45 mL/min/kg (liver microsome stability; rat liver microsomes; 1 µM).
`N#Cc1ccc2c(c1)[C@H]1CCCN(C(=O)c3ccc4[nH]cnc4c3)[C@H]1C2` — result for “Vz/F steady state”: 434 L (human, plasma; oral, 20 mg once daily, steady state).
The Cmax of `CCOc1c([C@H](C)n2nc(C)c3c(N)ncnc32)cc(Cl)c(F)c1[C@@H]1CNC(=O)C1` is reported as 3.31 ± 0.682 µM (patients, monotherapy; oral, 30 mg once daily, cycle 1 day 15).
`O=C(Nc1nc2cccc(-c3ccc(CN4CCS(=O)(=O)CC4)cc3)n2n1)C1CC1` — result for “patients with adverse event”: 0% (item: anaemia; rheumatoid arthritis patients; oral, 30 mg once daily, 4 weeks, any relatedness).
`CN(CCC#N)C(=O)c1ccc(C2CCCCC2)cc1` has a hepatic clearance of 79 mL/min/kg (hepatocyte stability; cryopreserved mouse hepatocytes; 1 µM).
For `N#Cc1ccc2c(c1)[C@H]1CCCN(C(=O)c3ccc4[nH]cnc4c3)[C@H]1C2`, “mean ACTH level” read 7.5 pmol/L (human; 80 mg, day 7).
`O=C(O)c1cc(=O)[nH]c(=O)[nH]1` — result for “serum protein binding”: < 6% (ultrafiltration; normal rat serum; 37 °C).
`O=C(Cn1ccnc1)Nc1ccc([C@H]2[C@@H](F)[C@@H](F)C[C@@H](F)[C@H]2F)cc1` has a hepatic clearance of 10 mL/min/kg (cryopreserved rat hepatocytes; 1 µM).
For `CO[C@H]1C[C@@H]2CC[C@@H](C)[C@@](O)(O2)C(=O)C(=O)N2CCCC[C@H]2C(=O)O[C@H]([C@H](C)C[C@@H]2CC[C@@H](OC(=O)NCCOCCOCCOCCOCCOCCOCCOCCOCCC(=O)N3CCc4cc(Cn5nc(-c6ccc7oc(N)nc7c6)c6c(N)ncnc65)ccc4C3)[C@H](OC)C2)C[C@@H](O)[C@H](C)/C=C(\C)[C@@H](O)[C@@H](OC)C(=O)[C@H](C)C[C@H](C)/C=C/C=C/C=C/1C`, the Tmax was 0.96 h (human, plasma; intravenous, 8 mg, cycle 1 day 15, arithmetic mean).
`CC[C@H](C)[C@H](NC(=O)[C@H](Cc1ccccc1)NC(=O)[C@H](CCC(=O)O)NC(=O)[C@H](CCCCNC(=O)COCCOCCNC(=O)COCCOCCNC(=O)CC[C@H](NC(=O)CCCCCCCCCCCCCCCCC(=O)O)C(=O)O)NC(=O)[C@H](C)NC(=O)[C@H](C)NC(=O)[C@H](CCC(N)=O)NC(=O)CNC(=O)[C@H](CCC(=O)O)NC(=O)[C@H](CC(C)C)NC(=O)[C@H](Cc1ccc(O)cc1)NC(=O)[C@H](CO)NC(=O)[C@H](CO)NC(=O)[C@@H](NC(=O)[C@H](CC(=O)O)NC(=O)[C@H](CO)NC(=O)[C@@H](NC(=O)[C@H](Cc1ccccc1)NC(=O)[C@@H](NC(=O)CNC(=O)[C@H](CCC(=O)O)NC(=O)C(C)(C)NC(=O)[C@@H](N)Cc1cnc[nH]1)[C@@H](C)O)[C@@H](C)O)C(C)C)C(=O)N[C@@H](C)C(=O)N[C@@H](Cc1c[nH]c2ccccc12)C(=O)N[C@@H](CC(C)C)C(=O)N[C@H](C(=O)N[C@@H](CCCNC(=N)N)C(=O)NCC(=O)N[C@@H](CCCNC(=N)N)C(=O)NCC(=O)O)C(C)C`: “adverse event incidence” 46.7% (item: Moderate adverse events; type 2 diabetes patients; dose not given; reference: subjects).
Under “adverse events incidence”, `C=CC(=O)NC1CCN(c2ncc3ncnc(Nc4ccc(Oc5ccc6c(c5)ncn6C)c(C)c4)c3n2)CC1` is recorded as 0% (item: gingival bleeding; human male; oral, dose not given, AEs, treatment-related, on drug, CTCAE).
`O=Cc1cc2ccccc2cc1C=O`: “degradation rate constant” 0.1 h⁻¹ (chemical stability, HPLC-MS; borate buffered saline; pH 10.2, no N-acetyl-lysine).
`Cn1nc2c(=O)n(C3CC3)cnc2c1[C@](O)(c1cnc(C(F)(F)F)c(Cl)c1)C(F)(F)F` has an AUC(0-96 h) of 303 µM·h (humanized SCID mice, blood; 10 mg/kg once daily, 6 days, infected).
With `O=C(NCc1cc[nH]n1)c1ccc(C2CCCCC2)cc1` the hepatic clearance was 34 mL/min/kg (liver microsome stability; cynomolgus liver microsomes; 1 µM).
With `CCc1nc(C(N)=O)c(Nc2ccc(N3CCC(N4CCN(C)CC4)CC3)c(OC)c2)nc1NC1CCOCC1` the Cmax was 166 ng/mL (Japanese patients, plasma; oral, 120 mg, cycle 0 day -2, single dose, median).
With `CSCC[C@H](NC(=O)[C@@H](N)CCSC)C(=O)N[C@@H](CCCNC(=N)N)C(=O)N[C@@H](Cc1c[nH]c2ccccc12)C(=O)N[C@@H](CO)C(=O)N[C@@H](CCCNC(=N)N)C(=O)N[C@@H](CCCCN)C(=O)N[C@@H](CCSC)C(=O)N1CCC[C@H]1C(=O)N[C@@H](CS)C(=O)N[C@H](C(=O)N[C@@H](CO)C(N)=O)C(C)C` the remaining activity was 3 ± 1% (12G5 competition, SUP-T1 cells; human plasma; concentration not given, 2 h).
`CC(C)(C(=O)N1CCOc2c(C#N)cncc2C1)C(F)F` — result for “share of subjects with TEAE”: 16.7% (item: skin disorders; healthy humans, both sexes; oral, 40 mg single dose).
